Published values pooled from the literature.
Compare with care: the assays were run in different laboratories.
Target: Serine/threonine-protein kinase 17A (STK17A, Homo sapiens, UniProt Q9UEE5)
Sequence (Q9UEE5 1-414, as in one of the studies): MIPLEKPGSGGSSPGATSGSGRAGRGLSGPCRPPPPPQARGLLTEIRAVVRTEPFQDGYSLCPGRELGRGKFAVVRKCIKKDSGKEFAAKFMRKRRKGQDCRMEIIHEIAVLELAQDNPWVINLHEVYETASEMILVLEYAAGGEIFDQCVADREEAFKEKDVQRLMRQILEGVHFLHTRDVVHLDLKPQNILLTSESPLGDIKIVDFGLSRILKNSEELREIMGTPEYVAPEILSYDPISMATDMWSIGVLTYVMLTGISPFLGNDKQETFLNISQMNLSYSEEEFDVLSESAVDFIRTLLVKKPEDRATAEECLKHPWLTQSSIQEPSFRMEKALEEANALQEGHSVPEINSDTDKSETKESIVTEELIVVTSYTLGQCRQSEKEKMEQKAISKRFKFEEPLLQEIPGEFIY

| SMILES | assay | test system | setting | scale | measurement | result |
| --- | --- | --- | --- | --- | --- | --- |
| CN1CCN(Cc2ccc(-c3ccc(CO[C@H]4CCC[C@@H]4NC(=O)c4cc(-c5cnn(C)c5)cnc4N)cc3)cc2)CC1 | enzyme activity, inhibitor |  | 0.1 µM |  | inhibition | 5% |
| Fc1cncc(-c2ccc3[nH]c4ncnc(N[C@H]5CC[C@H](N6CCOCC6)CC5)c4c3c2)c1 | enzyme activity, inhibitor, radiometric |  | 1 µM |  | inhibition | 86% |
| CNC1C[S+]2CC[S+]3CC[S+](C1)[Ru-4]321([N]=C=S)[n]2c3ccc(OC)cc3c3c4c(c5cc(F)c[n+]1c5c32)C(=O)NC4=O (stereo not drawn) | KinomeScan |  | 0.1 µM | reference: untreated | remaining binding | 49% |
| Cc1ccc(C(=O)Nc2ccc(CN3CCN(C)CC3)c(C(F)(F)F)c2)cc1C#Cc1cnc2cccnn12 | target engagement, NanoBRET | human cells |  |  | upper asymptote | 6270 |
| O=C(Cc1ccc(OCc2ccccc2)cc1)NC1(C(=O)O)CCN(C(=O)c2ccc(-c3cccc(Cl)c3)cc2)CC1 | enzyme activity, inhibitor |  | 10 µM |  | activity vs control | 137% |
| COc1ccc(NC(=O)Nc2ccc3c(c2)C(=O)N(C(C)CO)CC(C)C(CN(C)Cc2ccc4c(c2)OCO4)O3)cc1 (stereo not drawn) | kinase activity, KinaseProfiler |  | 0.03 µM, species human | reference: control | remaining activity | 102% |
| COC(=O)[C@@]1(C)C=C(C(=O)Nc2cccc(C(=O)Nc3ccc(Nc4nccc(-c5cccnc5)n4)c(C)c3)c2)C(=O)CC1 | enzyme activity, inhibitor, radiometric |  | 1 µM |  | remaining activity | 74% |
| O=C(O)CCC(=O)c1cccc(NS(=O)(=O)c2c[nH]c3ncccc23)c1 | kinase activity, radiometric |  | 10 µM |  | remaining activity | 106% |
| CC(C)=CC1OC(C)(C)C2C=C3C(=O)C(Cl)=CC(O)C3C3C(O)C4OC4C(=O)C132 (stereo not drawn) | cell-free assay, competition with immobilised ligand |  | 10 µM |  | remaining binding | 89% |
| NC(=O)C[C@H]1CCc2sc3ncnc(O[C@H]4CC[C@H](N5CCOCC5)CC4)c3c21 | enzyme activity, inhibitor |  | 10 µM |  | inhibition | 3% |
| CNC(=O)C1CCN(c2cc(C)c(F)cc2NC(=O)c2ccc(-c3cc(O)ccc3C)c(C)c2)CC1 | binding, competition with immobilised ligand |  | 1 µM |  | remaining binding | 100% |
| COc1cc(Nc2nccc(-c3cnn4nc(OC)ccc34)n2)cc(C(F)(F)F)c1 | binding, competition with immobilised ligand |  | 1 µM |  | remaining binding | 99% |
| C=CC(=O)N1CCCC(n2c(=O)c3ncccc3n(Cc3ccc(Oc4ccccc4)cc3)c2=O)C1 (stereo not drawn) | cell-free assay, competition with immobilised ligand |  | 1 µM |  | remaining binding | 96% |
| CNC(=O)C[C@H](Cc1ccc(C#N)cc1)NC(=O)c1cc(-c2ccc(CN[C@H](C)c3ccc(C)cc3)o2)ccc1Cl | enzyme activity, inhibitor |  | 1 µM |  | activity vs control | 104% |
| C=CC(=O)N1CCc2ccc(-n3c(=O)ccc4cnc5ccc(-c6cnn(C)c6)cc5c43)cc21 | KINOMEscan |  | 1 µM | reference: DMSO control | remaining binding | 100% |

Repeated from above:
| SMILES | assay | test system | setting | scale | measurement | result |
| --- | --- | --- | --- | --- | --- | --- |
| CNC(=O)C[C@H](Cc1ccc(C#N)cc1)NC(=O)c1cc(-c2ccc(CN[C@H](C)c3ccc(C)cc3)o2)ccc1Cl | enzyme activity, inhibitor |  | 1 µM |  | activity vs control | 104% |
| C=CC(=O)N1CCc2ccc(-n3c(=O)ccc4cnc5ccc(-c6cnn(C)c6)cc5c43)cc21 | KINOMEscan |  | 1 µM | reference: DMSO control | remaining binding | 100% |
